Measurements of several laboratories.
Lines come from different studies, so protocols differ. Numbers after ± are the reported error.
Inward rectifier potassium channel 4: Inward rectifier potassium channel 4 (Homo sapiens, UniProt P48050)
UniProt P48050, sequence (whole entry, looked up): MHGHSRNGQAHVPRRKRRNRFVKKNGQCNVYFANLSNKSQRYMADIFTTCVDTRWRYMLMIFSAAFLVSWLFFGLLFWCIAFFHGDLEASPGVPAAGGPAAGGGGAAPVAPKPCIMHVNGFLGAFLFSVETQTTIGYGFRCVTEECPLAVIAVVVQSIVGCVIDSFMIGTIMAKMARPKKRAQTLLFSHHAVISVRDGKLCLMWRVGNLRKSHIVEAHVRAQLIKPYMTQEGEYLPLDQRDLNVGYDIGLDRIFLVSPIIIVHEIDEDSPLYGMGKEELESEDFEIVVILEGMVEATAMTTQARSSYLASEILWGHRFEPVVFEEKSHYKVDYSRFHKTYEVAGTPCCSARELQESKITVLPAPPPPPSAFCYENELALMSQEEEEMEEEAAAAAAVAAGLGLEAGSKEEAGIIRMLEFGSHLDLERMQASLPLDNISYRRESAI
Urease: Urease (Canavalia ensiformis, UniProt P07374)
UniProt P07374, sequence (whole entry, looked up): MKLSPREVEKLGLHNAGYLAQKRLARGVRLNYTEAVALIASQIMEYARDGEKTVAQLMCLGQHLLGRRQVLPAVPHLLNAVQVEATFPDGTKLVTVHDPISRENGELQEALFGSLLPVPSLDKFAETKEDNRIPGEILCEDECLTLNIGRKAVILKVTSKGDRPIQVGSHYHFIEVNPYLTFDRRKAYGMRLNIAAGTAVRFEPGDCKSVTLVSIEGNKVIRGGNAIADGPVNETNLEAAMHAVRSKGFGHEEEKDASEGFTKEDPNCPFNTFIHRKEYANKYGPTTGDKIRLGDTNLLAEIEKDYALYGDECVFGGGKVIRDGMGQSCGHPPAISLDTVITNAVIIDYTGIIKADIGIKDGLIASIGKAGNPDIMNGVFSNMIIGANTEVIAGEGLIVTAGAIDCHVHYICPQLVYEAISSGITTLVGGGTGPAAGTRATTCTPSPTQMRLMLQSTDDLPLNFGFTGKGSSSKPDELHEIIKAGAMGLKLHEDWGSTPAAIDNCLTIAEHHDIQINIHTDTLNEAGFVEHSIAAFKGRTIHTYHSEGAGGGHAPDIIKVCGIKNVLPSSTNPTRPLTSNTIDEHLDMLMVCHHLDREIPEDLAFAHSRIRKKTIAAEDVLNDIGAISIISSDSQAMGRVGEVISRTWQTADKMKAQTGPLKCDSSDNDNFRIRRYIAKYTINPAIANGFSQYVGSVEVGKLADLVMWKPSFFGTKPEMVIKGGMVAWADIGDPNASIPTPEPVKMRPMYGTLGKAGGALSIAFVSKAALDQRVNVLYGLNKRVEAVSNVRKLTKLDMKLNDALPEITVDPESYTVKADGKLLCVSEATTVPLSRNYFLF
Kir1 channel protein: Kir1 channel protein (Aedes aegypti, UniProt L0EQS9)
KCNK18: Potassium channel subfamily K member 18 (KCNK18, Homo sapiens, UniProt Q7Z418)
UniProt Q7Z418, sequence (whole entry, looked up): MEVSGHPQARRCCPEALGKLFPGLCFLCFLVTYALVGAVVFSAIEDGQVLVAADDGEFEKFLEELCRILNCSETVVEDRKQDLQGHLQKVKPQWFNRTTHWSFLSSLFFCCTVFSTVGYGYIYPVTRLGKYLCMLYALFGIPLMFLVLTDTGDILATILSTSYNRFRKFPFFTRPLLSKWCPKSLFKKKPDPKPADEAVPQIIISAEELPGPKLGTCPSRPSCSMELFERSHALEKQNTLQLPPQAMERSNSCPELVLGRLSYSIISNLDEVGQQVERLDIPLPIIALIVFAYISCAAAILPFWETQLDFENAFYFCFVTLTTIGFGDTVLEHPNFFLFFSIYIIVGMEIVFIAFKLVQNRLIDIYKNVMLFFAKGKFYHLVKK
RIPK3: Receptor-interacting serine/threonine-protein kinase 3 (RIPK3, Homo sapiens, UniProt Q9Y572)
UniProt Q9Y572, sequence (whole entry, looked up): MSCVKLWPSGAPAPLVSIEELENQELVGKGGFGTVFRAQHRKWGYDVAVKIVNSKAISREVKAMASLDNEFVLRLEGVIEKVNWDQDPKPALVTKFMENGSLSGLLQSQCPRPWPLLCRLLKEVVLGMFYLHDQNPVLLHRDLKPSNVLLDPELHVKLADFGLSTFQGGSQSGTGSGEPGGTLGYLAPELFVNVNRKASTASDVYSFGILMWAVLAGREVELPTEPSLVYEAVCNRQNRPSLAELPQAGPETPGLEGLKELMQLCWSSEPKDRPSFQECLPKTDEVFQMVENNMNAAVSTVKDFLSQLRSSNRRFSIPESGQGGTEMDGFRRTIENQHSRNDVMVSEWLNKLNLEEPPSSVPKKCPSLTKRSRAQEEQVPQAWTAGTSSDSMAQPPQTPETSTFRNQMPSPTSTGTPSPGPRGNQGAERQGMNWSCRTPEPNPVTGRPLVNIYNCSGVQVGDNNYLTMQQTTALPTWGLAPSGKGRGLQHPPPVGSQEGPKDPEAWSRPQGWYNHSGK
ALKBH2: DNA oxidative demethylase ALKBH2 (ALKBH2, Homo sapiens, UniProt Q6NS38)
UniProt Q6NS38, sequence (whole entry, looked up): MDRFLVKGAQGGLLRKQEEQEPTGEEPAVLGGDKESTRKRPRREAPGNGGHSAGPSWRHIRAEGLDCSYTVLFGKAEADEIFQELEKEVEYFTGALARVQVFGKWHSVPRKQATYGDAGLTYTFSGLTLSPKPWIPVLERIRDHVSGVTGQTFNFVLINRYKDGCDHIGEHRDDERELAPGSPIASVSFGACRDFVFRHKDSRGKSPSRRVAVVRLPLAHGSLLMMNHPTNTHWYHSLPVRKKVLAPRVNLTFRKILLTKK
KCNJ13 M125R: Inward rectifier potassium channel 13 (KCNJ13, Homo sapiens, UniProt O60928, M125R)
UniProt O60928, sequence (whole entry, unmodified, looked up): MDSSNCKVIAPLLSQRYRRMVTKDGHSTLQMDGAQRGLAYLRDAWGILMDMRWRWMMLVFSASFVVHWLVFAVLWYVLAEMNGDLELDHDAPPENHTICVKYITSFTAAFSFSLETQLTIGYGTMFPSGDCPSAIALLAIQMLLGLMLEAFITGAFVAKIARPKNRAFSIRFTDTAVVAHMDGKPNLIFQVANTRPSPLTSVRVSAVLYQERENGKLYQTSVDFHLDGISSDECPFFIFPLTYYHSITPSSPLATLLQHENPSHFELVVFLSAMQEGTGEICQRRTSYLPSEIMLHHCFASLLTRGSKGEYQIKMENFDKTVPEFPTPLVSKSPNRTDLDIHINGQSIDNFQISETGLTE
CAPN1: Calpain-1 catalytic subunit (CAPN1, Homo sapiens, UniProt P07384)
UniProt P07384, sequence (whole entry, looked up): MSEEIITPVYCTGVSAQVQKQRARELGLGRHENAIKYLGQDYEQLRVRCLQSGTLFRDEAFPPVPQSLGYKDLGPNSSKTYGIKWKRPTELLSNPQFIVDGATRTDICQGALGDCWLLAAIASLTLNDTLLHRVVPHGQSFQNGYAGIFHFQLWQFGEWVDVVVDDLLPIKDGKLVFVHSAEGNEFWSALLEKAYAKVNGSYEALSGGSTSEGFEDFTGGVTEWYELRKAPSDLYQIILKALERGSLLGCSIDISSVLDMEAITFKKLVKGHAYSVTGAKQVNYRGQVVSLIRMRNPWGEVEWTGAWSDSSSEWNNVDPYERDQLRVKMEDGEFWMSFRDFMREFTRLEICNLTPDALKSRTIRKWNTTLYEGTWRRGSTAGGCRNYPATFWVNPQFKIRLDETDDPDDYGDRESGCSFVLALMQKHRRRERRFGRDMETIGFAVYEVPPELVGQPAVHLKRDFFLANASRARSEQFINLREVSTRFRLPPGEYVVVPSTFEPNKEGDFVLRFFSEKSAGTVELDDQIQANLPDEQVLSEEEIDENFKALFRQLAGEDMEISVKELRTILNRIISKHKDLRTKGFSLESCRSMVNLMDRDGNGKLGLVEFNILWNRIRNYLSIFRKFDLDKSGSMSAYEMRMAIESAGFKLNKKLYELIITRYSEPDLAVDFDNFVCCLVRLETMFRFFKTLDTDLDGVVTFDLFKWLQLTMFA
MAL12: Alpha-glucosidase MAL12 (MAL12, Saccharomyces cerevisiae S288c, UniProt P53341)
UniProt P53341, sequence (whole entry, looked up): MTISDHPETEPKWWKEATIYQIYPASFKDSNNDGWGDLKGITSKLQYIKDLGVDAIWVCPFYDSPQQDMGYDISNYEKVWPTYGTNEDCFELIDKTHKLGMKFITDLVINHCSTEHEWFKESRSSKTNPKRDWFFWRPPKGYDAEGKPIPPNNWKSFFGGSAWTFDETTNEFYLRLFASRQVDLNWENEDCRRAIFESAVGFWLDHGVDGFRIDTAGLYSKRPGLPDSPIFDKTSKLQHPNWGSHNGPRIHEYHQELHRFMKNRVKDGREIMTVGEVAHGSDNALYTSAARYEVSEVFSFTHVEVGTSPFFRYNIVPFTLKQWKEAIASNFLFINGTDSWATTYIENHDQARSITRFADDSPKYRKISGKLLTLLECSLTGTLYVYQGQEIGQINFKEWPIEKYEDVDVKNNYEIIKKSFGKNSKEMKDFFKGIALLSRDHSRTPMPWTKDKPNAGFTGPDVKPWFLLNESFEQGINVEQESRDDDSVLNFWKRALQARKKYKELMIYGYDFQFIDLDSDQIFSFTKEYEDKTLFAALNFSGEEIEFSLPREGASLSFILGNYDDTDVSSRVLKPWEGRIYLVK
UniProt Q8NE86, sequence (whole entry, looked up): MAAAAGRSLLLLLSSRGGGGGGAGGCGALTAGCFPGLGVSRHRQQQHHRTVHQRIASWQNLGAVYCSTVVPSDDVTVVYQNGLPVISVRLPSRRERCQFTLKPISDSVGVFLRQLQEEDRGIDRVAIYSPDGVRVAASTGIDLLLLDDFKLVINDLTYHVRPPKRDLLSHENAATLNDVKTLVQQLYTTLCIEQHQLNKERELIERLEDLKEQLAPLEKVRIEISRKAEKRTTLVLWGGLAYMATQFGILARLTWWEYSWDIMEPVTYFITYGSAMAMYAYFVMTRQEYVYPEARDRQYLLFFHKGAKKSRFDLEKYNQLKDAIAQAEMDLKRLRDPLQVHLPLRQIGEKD
UniProt P52500, sequence (whole entry, looked up): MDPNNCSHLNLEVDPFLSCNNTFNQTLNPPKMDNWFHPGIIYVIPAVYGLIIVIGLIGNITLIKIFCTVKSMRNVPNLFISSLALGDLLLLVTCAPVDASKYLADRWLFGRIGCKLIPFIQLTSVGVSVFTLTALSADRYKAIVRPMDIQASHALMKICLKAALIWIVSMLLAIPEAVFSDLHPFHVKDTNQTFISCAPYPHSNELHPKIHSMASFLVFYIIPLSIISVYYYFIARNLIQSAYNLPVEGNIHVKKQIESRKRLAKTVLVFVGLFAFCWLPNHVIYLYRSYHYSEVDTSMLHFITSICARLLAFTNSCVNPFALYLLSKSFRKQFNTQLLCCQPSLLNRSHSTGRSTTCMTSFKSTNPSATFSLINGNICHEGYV

Molecule | target | test | system | setting | IC50
OO | Helix pomatia arylsulfatase | enzyme activity | – | 1 h, pH 5.8, 37 °C, added: p-nitrophenyl sulfate | 143 ± 9 µM
CC1(C)S[C@@H]2[C@H](/N=C/N3CCCCCC3)C(=O)N2[C@H]1C(=O)O | dacC (Pseudomonas aeruginosa, UniProt G3XD74) | binding, Bocillin FL competition | Pseudomonas aeruginosa 1771 membranes | PBP 5, added: Bocillin FL 100 µM | > 39.9 µM
O=C1c2c(O)ccc(O)c2C(=O)c2c(NCCNCCO)ccc(NCCNCCO)c21 | MCU (Homo sapiens, UniProt Q8NE86) | mitochondrial Ca2+ uptake, aequorin | HeLa permeabilized with digitonin | pH 7.2, added: succinate and pyruvate, thapsigargin pretreatment | ~10 µM
N#Cc1ccc(F)c(OCC(O)Cn2c(=N)n(Cc3ccccc3)c3ccccc32)c1 (stereo not shown) | Inward rectifier potassium channel 4 | ion flux, inhibitor, fluorescence | – | – | 5.3 µM
O=C(/C=C/c1cccc(S(=O)(=O)Nc2ccccc2)c1)NO | histone deacetylase Plasmodium falciparum | – | Plasmodium falciparum, 3D7, nuclear extract | added: Ac-RGK(Ac)-AMC substrate | 0.215 ± 0.0153 µM
Cc1ccc2nc(C(C)C)n(-c3ccc4[nH]c(=O)sc4c3)c2n1 | GRIA1/CACNG8 (Homo sapiens, UniProt P42261+Q8WXS5) | calcium influx, antagonist, FLIPR | HEK293 expressing GluA1o | added: glutamate 100 µM | 0.0015 µM
CN(C)Cc1ccc(S(=O)(=O)n2ccc(/C=C/C(=O)NO)c2)cc1 | HDAC (Lucilia cuprina egg nuclear extract) | enzyme activity, inhibitor, fluorometric | – | – | 1.71 µM
Cc1cccc(Cc2nn(C(C)(C)C)c3ncnc(N)c23)c1 | EPHB1 (Homo sapiens, UniProt P54762, T697G) | enzyme activity, inhibitor, radiometric | – | – | 0.005 µM
O=c1cc(-c2cccc3ccccc23)[nH][nH]1 | ALPL (Homo sapiens, UniProt P05186) | enzyme activity, inhibitor, luminescence | – | added: 0.1 M DEA, 50 µM CDP-star | 4.01 ± 0.223 µM
Tannic acid | Genome polyprotein, NS2B-NS3 protease (Dengue virus type 4, UniProt P09866) | inhibitor, fluorogenic substrate Bz-Nle-Lys-Arg-Arg-AMC | DENV4 | – | 0.13 ± 0.01 µM
NC(N)=S | Urease | enzyme activity, inhibitor | – | pH 8.2 | 30 µM
[Cl-].[Cl-].[Cl-].[La+3] | human MMP-2 catalytic domain | inhibitor | – | pH 7.5, 37 °C, 45 min preincubation, added: DQ-gelatin | 9.5 ± 0.24 µM
Cc1nc(CNc2cc(N3CCN(S(=O)(=O)c4ccc(F)cc4)CC3)ccc2[N+](=O)[O-])no1 | Kir1 channel protein | ion flux, inhibitor, fluorescence | – | – | 0.359 µM
N=c1n(Cc2ccccc2)c2ccccc2n1CC(O)COc1cc(F)cc(F)c1 (stereo not shown) | Inward rectifier potassium channel 4 | ion flux, inhibitor, fluorescence | – | – | 3.53 µM
C[C@@H](CNCc1ccccc1)N1C[C@H](CCCNC(=N)N)N(CCc2cccc(F)c2)C1=S | central imidazoline I2 site | binding, radioligand displacement | – | – | > 1 µM
COc1cccc2c1c(O)c(C(=O)N(c1ccc(C(F)(F)F)cc1)C1CCCCC1)c(=O)n2C | Histone deacetylase 4, with MEF2, NCoR1 (HDAC4, Homo sapiens, UniProt P56524) | NCoR1-MEF-2 complex formation, immunoprecipitation | CWR22Rv1 | 1% O2 hypoxia | < 1 µM
CCCCOC(=O)NS(=O)(=O)c1sc(CC(C)C)cc1-c1ccc(Cn2c(CC)nc3c(C)cc(C)nc32)cc1 | KCNK18 | ion flux, inhibitor | – | – | 11.5 µM
CN1C(=O)NC(Cc2c[nH]c3c(Cl)cccc23)C1=O (stereo not shown) | RIPK3 | enzyme activity, inhibitor, ADP-Glo kinase | – | 20 ng enzyme | > 10 µM
Clc1ccc(COC(Cn2ccnc2)c2ccc(Cl)cc2Cl)cc1 (stereo not shown) | 7-alpha-hydroxycholest-4-en-3-one 12-alpha-hydroxylase (Homo sapiens, UniProt Q9UNU6) | enzyme activity, inhibitor | – | 2 min, added: 7α-hydroxycholest-4-en-3-one 0.5 µM (Km) | 0.803 µM
C#CCOc1ccc2c(=O)cc(-c3ccccc3)oc2c1 | Cytochrome P450 2B1 (Cyp2b1, Rattus norvegicus, UniProt P00176) | enzyme activity, inhibitor | supersomes | added: pentoxyresorufin 5 µM | > 10 µM
Cc1ccc(S(=O)(=O)/C=C/C#N)cc1 | USP7 (Homo sapiens, UniProt Q93009) | deubiquitinase activity, inhibitor, MALDI-TOF DUB | – | 60 min, 30 °C, 35 min pre-incubation, added: diubiquitin substrate | 0.19 µM
O=C(O)c1cc(O)c2c(c1)C(=O)c1cccc(O)c1C2=O | ALKBH2 | 1-methyladenine repair, inhibitor, HPLC | – | 1 h, 37 °C, added: ssDNA 16mer 5 µM | 71.1 µM
CCN(CC)CC(=O)Nc1c(C)cccc1C | KCNK18 | thallium flux, inhibitor | HEK293 transfected | added: carbachol 30 µM | 3410 ± 570 µM
Cc1cc(OCC(=O)N/N=C/c2cccc(OCc3cn(Cc4ccc(F)cc4)nn3)c2)c2c(C)cc(=O)oc2c1 | Urease | enzyme activity, inhibitor | – | – | 8.42 ± 0.53 µM
O=C(NNC(=O)c1ccc(CNS(=O)(=O)c2ccc(F)c(Cl)c2)cc1)c1ccccc1 | Glutamate NMDA receptor; Grin1/Grin2a (Grin1/Grin2a, Rattus norvegicus, UniProt P35439+Q00959, G786D) | ion current, two-electrode voltage clamp | – | oocytes | 1.4 µM
tannic acid | ALKBH2 | enzyme activity, inhibitor, HPLC | – | 1 h, 37 °C, 2-oxoglutarate and Fe(II) present, added: 3-methylcytosine in single-stranded DNA | 3.9 µM

Molecule | target | test | system | setting | IC50
Nc1ncnc2c1ncn2[C@@H]1O[C@H](CSCC[C@H](N)C(=O)O)[C@@H](O)[C@H]1O | Histone-lysine N-methyltransferase 2A, SET domain (KMT2A, Homo sapiens, UniProt Q03164) | FL-NAH displacement, fluorescence polarization | – | 30 min, isolated SET domain, added: 50 nM FL-NAH | 4 ± 0.5 µM
N=c1n(Cc2ccccc2)c2ccccc2n1CC(O)COc1ccc(OCc2ccccc2)cc1 (stereo not shown) | KCNJ13 M125R | ion flux, inhibitor | – | – | > 100 µM
N#Cc1ccc(C(CCc2ccc(OS(N)(=O)=O)cc2)n2cncn2)cc1 (racemic) | Steryl-sulfatase (STS, Homo sapiens, UniProt P08842) | enzyme activity, inhibitor | JEG-3 | 1 h, added: [3H]oestrone sulfate | > 10 µM
CC(=O)c1cnc2ccc(-c3cc(Cl)c(O)c(Cl)c3)nc2c1N[C@H]1CC[C@H](CN(C)C)CC1 | ATM (Homo sapiens, UniProt Q13315) | kinase activity reporter, inhibitor, SPARK reporter imaging | HEK293 | 1 h, added: etoposide 3 µM | 0.064 µM
CC(C)CCn1c(CN2CCN(C(=O)c3ccco3)CC2)nc2c1c(=O)n(C)c(=O)n2C | ALDH1A3 (Homo sapiens, UniProt P47895) | enzyme activity, inhibitor | – | added: propionaldehyde | > 100 µM
CCCCCC/C=C\CC(=O)N[C@H](C(=O)N[C@@H](CO)[C@@H](O)CC(=O)N[C@H](C(=O)N[C@@H](CO)[C@@H](O)CC(=O)N[C@H](C(=O)N[C@@H]1C=CC(=O)N[C@@H](C(C)C)C(=O)N(C)[C@@H](Cc2ccc(O)cc2)C(=O)OC1)C(C)C)C(C)C)C(C)C | CAPN1 | enzyme activity, inhibitor, fluorescence | – | – | 0.0209 µM
Nc1ncnc2c1ncn2[C@@H]1O[C@H](COP(=O)(O)O)[C@@H](OP(=O)(O)O)[C@H]1O | AASDHPPT (Homo sapiens, UniProt Q9NRN7) | phosphopantetheinylation, inhibitor, fluorescence polarization | – | 45 min, pH 7.6, 10% DMSO, added: VibB 10 µM and rhodamine-CoA 5 µM | 6 ± 1 µM
Cc1ccc(Cn2cc(COc3cccc(/C=N/NC(=O)COc4cc(C)cc5oc(=O)cc(C)c45)c3)nn2)cc1 | Urease | enzyme activity, inhibitor | – | – | 14.3 ± 2.15 µM
CCOC(=O)C1=C(C)NC2=C(C(=O)CC(C)(C)C2)C1c1cc(Br)c(OCC)c(Br)c1 (stereo not shown) | MAL12 | enzyme activity, inhibitor, absorbance | – | pH 6.8 | 6.34 µM
CC(O)c1cc(C(=O)N[C@@H](C)Cn2ccc(-c3ccc(C#N)c(Cl)c3)n2)[nH]n1 (stereo partly shown) | SLCO1B1 (Homo sapiens, UniProt Q9Y6L6) | transporter uptake, inhibitor | – | – | 16.8 µM
Cc1cccc(OCC(O)Cn2c(=N)n(Cc3ccccc3)c3ccccc32)c1 (stereo not shown) | KCNJ13 M125R | ion flux, inhibitor | – | – | 8 µM
O=[N+]([O-])c1ccc(N2CCN(S(=O)(=O)c3ccc(F)cc3)CC2)cc1NCc1ncon1 | Kir1 channel protein | ion flux, inhibitor, fluorescence | – | – | 0.19 µM
O=C(Nc1nc(-c2ccc(F)cc2)cs1)[C@H](Cc1c[nH]cn1)NC(=O)[C@@H]1O[C@H]1C(=O)O | CAPN1 | inhibitor, FRET | – | 20 min | > 1 µM
S=C(Nc1ccc(I)cc1)N1CCc2ccccc2C1 | Urease | enzyme activity, inhibitor, absorbance | – | – | 50.6 µM
Nc1ncnc2c1ncn2[C@@H]1O[C@H](C[C@H](CC[C@H](N)C(=O)O)NCc2ccccc2)[C@@H](O)[C@H]1O | SETD2 (Homo sapiens, UniProt Q9BYW2) | enzyme activity, inhibitor, radiometric methylation | – | added: SAM and peptide at sub-Km | 0.48 ± 0.06 µM
N#CC1=C(N)Oc2c(c(=O)[nH]c3ccccc23)C1c1ccc(OCc2cn(Cc3ccccc3)nn2)cc1 (stereo not shown) | MAL12 | enzyme activity | – | – | 20.01 ± 0.02 µM
C[C@@H]1O[C@@H](O[C@@H]2[C@@H](O)[C@H](OCCc3ccc(O)c(O)c3)O[C@H](CO)[C@H]2OC(=O)/C=C/c2ccc(O)c(O)c2)[C@H](O)[C@H](O)[C@H]1O | tyrosinase (Agaricus bisporus) | enzyme activity | – | 30 min, pH 6.8, 37 °C, added: L-DOPA | 324 µM
N#CC1=C(N)Oc2c(c(=O)[nH]c3ccccc23)C1c1cccc(OCc2cn(Cc3ccc(F)cc3)nn2)c1 (stereo not shown) | MAL12 | enzyme activity | – | – | 8.87 ± 0.03 µM
CC(/C=C/C(=O)NO)=C\[C@@H](C)C(=O)c1ccc(N(C)C)cc1 | HDAC (Lucilia cuprina egg nuclear extract) | enzyme activity, inhibitor, fluorometric | – | – | 0.016 µM
S=C(Nc1cc(Cl)ccc1Cl)N1CCc2ccccc2C1 | Urease | enzyme activity, inhibitor, absorbance | – | – | 56.7 µM
CC(C)COc1cccc(CC(=O)N2CCNc3nc(C(F)(F)F)ccc3[C@H]2CC(=O)O)c1 | Gastrin-releasing peptide receptor (Rattus norvegicus, UniProt P52500) | ligand displacement, radioligand | – | – | > 3 µM
[Na+].[Na+].[Na+].[O]=[V]([O-])([O-])[O-] | PTPN2 (Homo sapiens, UniProt P17706) | enzyme activity, inhibitor, absorbance | – | – | 2.4 µM
COc1ccc(OCC(O)Cn2c(=N)n(Cc3ccccc3)c3ccccc32)cc1 (stereo not shown) | Inward rectifier potassium channel 4 | ion flux, inhibitor, fluorescence | – | – | 3.87 µM
O=C1Nc2ccc(I)cc2/C1=C/c1cc(Br)c(O)c(Br)c1 | LRRK2 (Homo sapiens, UniProt Q5S007) | LRRKtide phosphorylation, inhibitor | – | 25 °C, added: 1 µM ATP | ~0.5 µM
N=c1n(Cc2ccc(Cl)cc2)c2ccccc2n1CC(O)COc1ccccc1 (stereo not shown) | KCNJ13 M125R | ion flux, inhibitor | – | – | 8.93 µM
CC(C)S(=O)(=O)c1ccc2nccc(Nc3ccc4sc(C5CCCC5)nc4c3)c2c1 | RIPK3 | enzyme activity, inhibitor, ADP detection | – | – | 0.002 µM

Some of these lines once more:
Molecule | target | test | system | setting | IC50
CC(=O)c1cnc2ccc(-c3cc(Cl)c(O)c(Cl)c3)nc2c1N[C@H]1CC[C@H](CN(C)C)CC1 | ATM (Homo sapiens, UniProt Q13315) | kinase activity reporter, inhibitor, SPARK reporter imaging | HEK293 | 1 h, added: etoposide 3 µM | 0.064 µM
O=C1c2c(O)ccc(O)c2C(=O)c2c(NCCNCCO)ccc(NCCNCCO)c21 | MCU (Homo sapiens, UniProt Q8NE86) | mitochondrial Ca2+ uptake, aequorin | HeLa permeabilized with digitonin | pH 7.2, added: succinate and pyruvate, thapsigargin pretreatment | ~10 µM
Nc1ncnc2c1ncn2[C@@H]1O[C@H](CSCC[C@H](N)C(=O)O)[C@@H](O)[C@H]1O | Histone-lysine N-methyltransferase 2A, SET domain (KMT2A, Homo sapiens, UniProt Q03164) | FL-NAH displacement, fluorescence polarization | – | 30 min, isolated SET domain, added: 50 nM FL-NAH | 4 ± 0.5 µM
